Experimental data from different studies.
Numbered parts are unrelated; each lists some results of a single study. Values joined by “and” are separate records of one study, mostly repeats; a detail may differ. Numbers after ± are the reported error.
Chain of UniProt P48729 (whole entry, looked up): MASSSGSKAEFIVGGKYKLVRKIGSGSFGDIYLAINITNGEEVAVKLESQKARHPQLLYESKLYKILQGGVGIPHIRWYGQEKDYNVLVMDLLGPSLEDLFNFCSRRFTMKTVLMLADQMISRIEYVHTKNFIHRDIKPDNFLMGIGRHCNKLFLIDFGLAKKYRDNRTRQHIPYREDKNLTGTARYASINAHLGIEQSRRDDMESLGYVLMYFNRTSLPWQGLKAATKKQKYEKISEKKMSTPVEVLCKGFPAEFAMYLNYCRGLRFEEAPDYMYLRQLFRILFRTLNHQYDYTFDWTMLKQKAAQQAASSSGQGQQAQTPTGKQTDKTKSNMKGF
Chain of UniProt P57059 (whole entry, looked up): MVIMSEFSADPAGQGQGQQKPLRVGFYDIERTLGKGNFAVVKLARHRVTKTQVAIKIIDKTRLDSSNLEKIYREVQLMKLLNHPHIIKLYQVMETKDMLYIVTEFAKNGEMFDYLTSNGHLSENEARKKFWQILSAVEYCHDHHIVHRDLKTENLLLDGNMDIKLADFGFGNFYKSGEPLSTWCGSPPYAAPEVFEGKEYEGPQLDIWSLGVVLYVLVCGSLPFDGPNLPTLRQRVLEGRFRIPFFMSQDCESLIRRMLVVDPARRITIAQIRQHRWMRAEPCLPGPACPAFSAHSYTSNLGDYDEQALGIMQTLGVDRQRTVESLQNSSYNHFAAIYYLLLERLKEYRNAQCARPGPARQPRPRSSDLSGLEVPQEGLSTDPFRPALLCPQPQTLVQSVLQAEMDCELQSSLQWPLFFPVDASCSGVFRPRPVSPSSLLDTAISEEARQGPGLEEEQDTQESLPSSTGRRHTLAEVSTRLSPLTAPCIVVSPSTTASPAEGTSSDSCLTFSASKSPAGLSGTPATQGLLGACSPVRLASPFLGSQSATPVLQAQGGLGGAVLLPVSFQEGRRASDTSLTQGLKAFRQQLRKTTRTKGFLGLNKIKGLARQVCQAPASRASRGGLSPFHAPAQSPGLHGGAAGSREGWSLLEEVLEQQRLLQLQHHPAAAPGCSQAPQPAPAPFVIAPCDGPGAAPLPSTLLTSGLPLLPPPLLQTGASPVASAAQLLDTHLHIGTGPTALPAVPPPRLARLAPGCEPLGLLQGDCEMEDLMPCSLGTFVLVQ
Chain of UniProt Q13882 (whole entry, looked up): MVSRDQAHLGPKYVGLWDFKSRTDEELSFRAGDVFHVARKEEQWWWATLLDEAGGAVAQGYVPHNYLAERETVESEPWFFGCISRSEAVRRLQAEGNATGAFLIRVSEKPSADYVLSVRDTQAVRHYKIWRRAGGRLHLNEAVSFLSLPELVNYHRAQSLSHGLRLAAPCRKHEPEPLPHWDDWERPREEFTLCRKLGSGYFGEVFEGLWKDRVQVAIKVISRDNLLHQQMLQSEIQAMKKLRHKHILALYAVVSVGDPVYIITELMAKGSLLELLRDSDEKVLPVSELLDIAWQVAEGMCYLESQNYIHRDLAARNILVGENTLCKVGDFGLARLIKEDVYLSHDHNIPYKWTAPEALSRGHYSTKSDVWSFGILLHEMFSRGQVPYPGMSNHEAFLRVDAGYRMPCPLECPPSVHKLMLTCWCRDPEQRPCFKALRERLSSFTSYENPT

Series 1
Target: Sodium-dependent neutral amino acid transporter B(0)AT1 (SLC6A19, Homo sapiens, UniProt Q695T7)
Chain of UniProt Q695T7 (whole entry, looked up): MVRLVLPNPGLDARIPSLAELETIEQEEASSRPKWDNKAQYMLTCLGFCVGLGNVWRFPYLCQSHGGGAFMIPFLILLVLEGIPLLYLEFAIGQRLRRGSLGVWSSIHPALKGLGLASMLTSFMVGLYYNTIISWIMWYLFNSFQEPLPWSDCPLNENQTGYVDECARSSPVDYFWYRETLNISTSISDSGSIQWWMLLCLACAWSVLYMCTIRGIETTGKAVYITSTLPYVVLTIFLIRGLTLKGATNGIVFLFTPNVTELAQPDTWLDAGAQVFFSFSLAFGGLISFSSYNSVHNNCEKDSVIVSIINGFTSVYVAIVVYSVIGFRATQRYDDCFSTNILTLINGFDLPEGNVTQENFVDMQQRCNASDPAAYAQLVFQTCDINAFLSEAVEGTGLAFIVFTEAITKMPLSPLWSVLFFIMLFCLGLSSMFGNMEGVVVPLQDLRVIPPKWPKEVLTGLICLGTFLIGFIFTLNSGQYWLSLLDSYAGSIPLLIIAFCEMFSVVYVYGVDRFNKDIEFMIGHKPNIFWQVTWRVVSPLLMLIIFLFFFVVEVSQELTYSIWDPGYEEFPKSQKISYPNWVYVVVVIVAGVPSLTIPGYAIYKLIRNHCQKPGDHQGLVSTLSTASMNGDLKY
Mode: inhibitor
Technique: FLIPR membrane potential
Cells: CHO-BC cells
Measurement: IC50
Compound = CC(C)NC(=O)COc1ccc(Cl)cc1; value = 36.4 ± 33.3 µM
Compound = Cc1cc(OCC(=O)NC(C)C)ccc1Cl; value = 1.63 ± 0.168 µM
Compound = CCNC(=O)COc1cc(C)c(Cl)c(C)c1; value = 2.66 ± 0.405 µM
Compound = CNC(=O)COc1cc(C)c(Cl)c(C)c1; value = 26.7 ± 8.6 µM
Compound = CC(C)NC(=O)COc1ccc(Br)cc1; value = 12.5 ± 3.31 µM
Compound = CCCNC(=O)COc1cc(C)c(Cl)c(C)c1; value = 4.91 ± 0.628 µM
Compound = CC(C)NC(=O)COc1ccc(I)cc1; value = 5.3 ± 0.551 µM

Series 2
Compound: Cn1cc(-c2cccc(CN3CCC4(CC3)COc3c4ccc4c3CN([C@@H]3CCC(=O)NC3=O)C4=O)c2)cn1
Mode: degrader
Technique: HiBiT
Cells: HEK293
Measurement: remaining protein
Zinc finger protein Aiolos: Zinc finger protein Aiolos (Homo sapiens, UniProt Q9UKT9)
Chain of UniProt Q9UKT9 (whole entry, looked up): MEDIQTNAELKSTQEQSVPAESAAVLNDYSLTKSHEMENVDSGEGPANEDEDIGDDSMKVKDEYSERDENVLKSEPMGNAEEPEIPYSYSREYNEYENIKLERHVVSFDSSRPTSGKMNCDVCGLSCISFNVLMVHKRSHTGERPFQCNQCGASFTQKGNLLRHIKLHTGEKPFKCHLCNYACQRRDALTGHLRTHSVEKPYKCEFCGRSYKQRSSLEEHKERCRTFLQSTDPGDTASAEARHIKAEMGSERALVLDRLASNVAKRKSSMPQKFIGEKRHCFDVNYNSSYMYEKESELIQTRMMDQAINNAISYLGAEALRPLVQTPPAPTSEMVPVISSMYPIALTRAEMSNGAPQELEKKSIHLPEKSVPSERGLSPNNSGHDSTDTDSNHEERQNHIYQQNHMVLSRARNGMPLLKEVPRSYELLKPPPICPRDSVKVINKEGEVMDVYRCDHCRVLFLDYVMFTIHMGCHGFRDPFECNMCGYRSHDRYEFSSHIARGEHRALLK
DNA-binding protein Ikaros: DNA-binding protein Ikaros (Homo sapiens, UniProt Q13422)
Chain of UniProt Q13422 (whole entry, looked up): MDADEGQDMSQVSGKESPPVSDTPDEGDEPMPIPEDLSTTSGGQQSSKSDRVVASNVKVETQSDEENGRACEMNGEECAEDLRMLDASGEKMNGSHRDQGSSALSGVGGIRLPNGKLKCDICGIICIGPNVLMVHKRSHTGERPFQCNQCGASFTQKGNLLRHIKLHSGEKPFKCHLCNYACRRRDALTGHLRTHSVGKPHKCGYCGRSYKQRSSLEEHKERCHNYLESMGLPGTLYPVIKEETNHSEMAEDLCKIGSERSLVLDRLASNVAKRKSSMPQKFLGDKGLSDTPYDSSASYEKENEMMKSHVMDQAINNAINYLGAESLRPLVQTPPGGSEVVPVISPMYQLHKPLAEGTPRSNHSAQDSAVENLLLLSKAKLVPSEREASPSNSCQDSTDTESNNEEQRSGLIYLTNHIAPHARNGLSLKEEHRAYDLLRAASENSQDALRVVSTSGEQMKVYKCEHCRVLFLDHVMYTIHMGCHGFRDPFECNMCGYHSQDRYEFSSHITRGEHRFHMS
GSPT1: Eukaryotic peptide chain release factor GTP-binding subunit ERF3A (GSPT1, Homo sapiens, UniProt P15170)
Chain of UniProt P15170 (whole entry, looked up): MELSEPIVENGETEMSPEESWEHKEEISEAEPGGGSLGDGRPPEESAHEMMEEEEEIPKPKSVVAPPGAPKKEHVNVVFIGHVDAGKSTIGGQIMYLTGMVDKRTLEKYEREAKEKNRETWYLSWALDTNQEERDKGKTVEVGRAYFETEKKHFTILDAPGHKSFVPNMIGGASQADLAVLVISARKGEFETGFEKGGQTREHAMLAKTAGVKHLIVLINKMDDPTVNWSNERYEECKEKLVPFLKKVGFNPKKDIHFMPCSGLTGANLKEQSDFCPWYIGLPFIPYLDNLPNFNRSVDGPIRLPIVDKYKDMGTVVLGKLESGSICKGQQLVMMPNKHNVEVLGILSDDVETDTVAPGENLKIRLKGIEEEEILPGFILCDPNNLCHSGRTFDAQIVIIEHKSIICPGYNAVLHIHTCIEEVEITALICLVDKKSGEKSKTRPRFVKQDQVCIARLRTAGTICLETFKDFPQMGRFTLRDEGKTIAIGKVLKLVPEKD
SALL4: Sal-like protein 4 (SALL4, Homo sapiens, UniProt Q9UJQ4)
Chain of UniProt Q9UJQ4 (whole entry, looked up): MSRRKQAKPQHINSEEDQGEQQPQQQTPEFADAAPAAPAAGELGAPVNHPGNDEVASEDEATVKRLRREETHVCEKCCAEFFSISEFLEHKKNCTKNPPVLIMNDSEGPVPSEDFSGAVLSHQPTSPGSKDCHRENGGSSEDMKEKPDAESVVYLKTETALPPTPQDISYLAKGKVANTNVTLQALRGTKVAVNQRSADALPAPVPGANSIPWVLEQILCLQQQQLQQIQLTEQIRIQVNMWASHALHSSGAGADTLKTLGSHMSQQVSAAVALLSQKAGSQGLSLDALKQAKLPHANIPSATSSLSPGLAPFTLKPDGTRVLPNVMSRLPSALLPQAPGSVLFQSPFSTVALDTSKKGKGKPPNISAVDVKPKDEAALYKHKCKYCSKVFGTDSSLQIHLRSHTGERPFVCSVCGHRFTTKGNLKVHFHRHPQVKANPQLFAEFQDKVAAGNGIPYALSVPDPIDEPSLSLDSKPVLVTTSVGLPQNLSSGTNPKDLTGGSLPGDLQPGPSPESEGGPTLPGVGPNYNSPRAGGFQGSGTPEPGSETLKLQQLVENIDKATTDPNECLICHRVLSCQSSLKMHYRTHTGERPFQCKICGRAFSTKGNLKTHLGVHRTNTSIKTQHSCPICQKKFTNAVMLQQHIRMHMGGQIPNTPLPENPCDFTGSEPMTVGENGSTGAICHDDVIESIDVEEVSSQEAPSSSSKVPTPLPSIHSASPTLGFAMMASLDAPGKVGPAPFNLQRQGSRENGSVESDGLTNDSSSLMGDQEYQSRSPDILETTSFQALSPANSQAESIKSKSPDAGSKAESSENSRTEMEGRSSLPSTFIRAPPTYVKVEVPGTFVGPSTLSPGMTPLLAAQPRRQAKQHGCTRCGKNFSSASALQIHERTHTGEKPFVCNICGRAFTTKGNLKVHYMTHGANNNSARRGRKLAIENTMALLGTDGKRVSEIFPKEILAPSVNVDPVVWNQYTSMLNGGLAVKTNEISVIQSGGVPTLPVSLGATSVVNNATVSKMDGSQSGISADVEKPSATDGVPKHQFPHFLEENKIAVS
target = Zinc finger protein Aiolos; concentration = 10000 nM; value = 94% and 93.2%
target = DNA-binding protein Ikaros; concentration = 0.5081 nM; value = 104% and 100%
target = GSPT1; concentration = 10000 nM; value = 87.7% and 101%
target = CSNK1A1 (Homo sapiens, UniProt P48729); concentration = 0.5081 nM; value = 104% and 105%
target = Zinc finger protein Aiolos; concentration = 0.1694 nM; value = 98.1% and 98.7%
target = GSPT1; concentration = 0.1694 nM; value = 106% and 101%
target = GSPT1; concentration = 370.37 nM; value = 105% and 90%
target = Zinc finger protein Aiolos; concentration = 3333.33 nM; value = 98.3% and 91.1%
target = SALL4; concentration = 0.5081 nM; value = 94.9% and 103%
target = SALL4; concentration = 4.572 nM; value = 98.1% and 99.1%
target = GSPT1; concentration = 4.572 nM; value = 104% and 108%
target = DNA-binding protein Ikaros; concentration = 10000 nM; value = 96.5% and 93.8%
target = SALL4; concentration = 1111.11 nM; value = 81.8% and 82.8%

Series 3
SMILES: Cc1nc(C)c(C=[N+]([O-])C(C)(C)C)nc1C
Technique: HPLC-ECD
Species: MPTP mouse model
Matrix: striatum
Measurement: striatal DOPAC content
dose = 30 mg/kg; value = 0.234 ng/mg tissue and 0.253 ng/mg tissue and 0.196 ng/mg tissue and 0.353 ng/mg tissue and 0.397 ng/mg tissue and 0.23 ng/mg tissue
dose = 90 mg/kg; value = 0.216 ng/mg tissue and 0.374 ng/mg tissue and 0.247 ng/mg tissue and 0.351 ng/mg tissue and 0.381 ng/mg tissue and 0.46 ng/mg tissue and 0.321 ng/mg tissue
dose = 10 mg/kg; value = 0.339 ng/mg tissue and 0.271 ng/mg tissue and 0.178 ng/mg tissue and 0.222 ng/mg tissue and 0.328 ng/mg tissue and 0.341 ng/mg tissue and 0.217 ng/mg tissue

Series 4
Structure (SMILES): CN(C1COC1)C(C)(C)/C=C(\C#N)C(=O)N1CCC[C@H]1Cn1nc(-c2ccc(Oc3ccccc3)cc2F)c2c(N)ncnc21
Effect on: kinase activity
Measurement: inhibition
target = PASK (Homo sapiens, UniProt Q96RG2); concentration = 1 µM; value = -1%
target = PAK3 (Homo sapiens, UniProt O75914); concentration = 0.1 µM; value = 3%
target = CSF1R (Homo sapiens, UniProt P07333); concentration = 1 µM; value = 5%
target = PTK6 (Homo sapiens, UniProt Q13882); concentration = 0.1 µM; value = 24%
target = SIK1 (Homo sapiens, UniProt P57059); concentration = 0.1 µM; value = 6%
target = PDPK1 (Homo sapiens, UniProt O15530); concentration = 1 µM; value = -3%
target = CDK2 (Homo sapiens, UniProt P24941); concentration = 0.1 µM; value = 9%
target = RPS6KA4 (Homo sapiens, UniProt O75676); concentration = 1 µM; value = 0%

Further values, each from its own experiment
Structure (SMILES) = C=CCN1C(=O)C(O)(C(=O)O)Oc2cc(F)ccc21 (centres unmarked); organism = Echinochloa crus-galli; effect on = fresh weight; dose = 150 g ai/ha; setting = post-emergence treatment; measurement = inhibition; value = 40.1% and 44.7% and 39.3%

A few entries again (series 3):
dose = 30 mg/kg; value = 0.234 ng/mg tissue and 0.253 ng/mg tissue and 0.196 ng/mg tissue and 0.353 ng/mg tissue and 0.397 ng/mg tissue and 0.23 ng/mg tissue
dose = 90 mg/kg; value = 0.216 ng/mg tissue and 0.374 ng/mg tissue and 0.247 ng/mg tissue and 0.351 ng/mg tissue and 0.381 ng/mg tissue and 0.46 ng/mg tissue and 0.321 ng/mg tissue
dose = 10 mg/kg; value = 0.339 ng/mg tissue and 0.271 ng/mg tissue and 0.178 ng/mg tissue and 0.222 ng/mg tissue and 0.328 ng/mg tissue and 0.341 ng/mg tissue and 0.217 ng/mg tissue
